Results from different studies.
Parts stem from different laboratories: compare values within a part only. Substitutions count along the parent as printed.

Study 1
Target: RNA binding protein fox-1 homolog 2, RRM domain, GST-SBP tag (RBFOX2, Homo sapiens, UniProt O43251-10, residues 100-194)
Technique: RNA Bind-n-Seq
Molecule type: RNA
Sample: in vitro
Tested at: 365 nM
Setting: natural RNA segment, single round, ends assumed
Relative to: no-protein control
Reading: higher = stronger binding
Endpoint: RBNS enrichment (R)
Target sequence (chain): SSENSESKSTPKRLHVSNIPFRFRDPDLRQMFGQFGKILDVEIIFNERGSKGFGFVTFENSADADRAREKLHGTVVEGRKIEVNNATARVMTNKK
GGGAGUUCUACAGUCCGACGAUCCUCUGACCCUUCCUGUUGGUAUUUAUGAAAUCUCAAAGAGAUGAGCCACCUUGGCUUCCAAUAUGGCAAGAGGGUGCUGGGAGAAGGUGAAGAUCAGUCUAAGCUGCCACUGGAAUUCUCGGGUGCCAA: 0.321
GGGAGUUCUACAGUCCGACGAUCAGUGCUUUUCUUCUUGGGCUCCCUUCUGACCUGCAGGACAGUUUUCCUGGAGCCAUUUGGUAUGAGGUAUUAAUUUAGCUUAACUAAAUUACAGGGGACUCAGAGGCCGUUGGAAUUCUCGGGUGCCAA: 0.379
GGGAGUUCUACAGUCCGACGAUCUGUGCUUUCUUGCUCUGGACUGCGAGUGCACCCAGGGUUCUUCUAUCCCGACACAGCUCUGUGCCUUCAGCCCCAGGUCCACAGCGGGGACACUCGAGCCUCUGCUCUCAUGGAAUUCUCGGGUGCCAA: 0.501
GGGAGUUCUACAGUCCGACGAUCGUUCUGGAGCCUCAUCUGGCUGGGAUCUCCAAGGGGCCUCCUGGAUUCAGUCCCCACUGGCCCUGAGCACGACAGCCCUUCUUACCCUCCCAGGAAUGCCGUGAAAGGAGUGGAAUUCUCGGGUGCCAA: 2.73
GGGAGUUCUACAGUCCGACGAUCAUAUUACUGGCGUUUUGUUCAUUUUAAGACUGUUAACAUGAAGAAAAGUGUGCUAGAACUUUUUAAAAACACAUAAUGUCUUGAAGUUAGAAUAAACACUAAGAAAUGACUGGAAUUCUCGGGUGCCAA: 1.02
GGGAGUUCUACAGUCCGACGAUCAUUUCACCACUGGAACACAGGUGUGCUGCUUGUUAGCAAGCAGAGCAAUAAAGAUGUGCUGGAUGUCUUGUUAAUGUUUUCUUUUAAAAAGAAGCGUCAGUGUCAGCCGGUGGAAUUCUCGGGUGCCAA: 0.278
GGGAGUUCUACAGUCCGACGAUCCCAACAUGGAGAAACCCCGCCUCUACUAAAAAUACAAAAAAUUAGCCAGGCAUGGAGGCACAUGCCUAUAAUCCCAGCUACUCGGGAGGCUGAGGUAGGAGAAUCGCUUGUGGAAUUCUCGGGUGCCAA: 0.922
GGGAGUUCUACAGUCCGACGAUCUUGGAUUCAAGUUUAAUUAGCUAAUAACCAUGGAGAUUGUUUUACAACUUUGUGAUAUGGUCAAGCUCCCGUUUAAGAAAUGGGAGUCUGUUGUUGCAGAUCAGUAAUUGUGGAAUUCUCGGGUGCCAA: 0.277

Study 2
Target: CEP164, C-terminal peptide (human)
Technique: DHFR complementation, deep sequencing
Sample: yeast
Setting: single substitutions, model-inferred values
Relative to: wild type
Reading: higher = weaker binding
Endpoint: binding free energy change
Starting sequence: PDZK1, PDZ domain 2 (human); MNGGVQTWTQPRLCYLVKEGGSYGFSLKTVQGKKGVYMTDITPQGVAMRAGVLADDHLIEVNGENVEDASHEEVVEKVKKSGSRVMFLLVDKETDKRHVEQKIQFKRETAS; partner HNRVKVYRF
K80Y: 3.46 kJ/mol
G3R: -0.342 kJ/mol
H71C: 0.59 kJ/mol
Q101Y: -0.204 kJ/mol
G82V: 2.86 kJ/mol
T109D: -0.553 kJ/mol
P43K: 1.58 kJ/mol
E76P: 4.68 kJ/mol

Study 3
Target: Prothrombin, mature alpha-thrombin (F2, Homo sapiens, UniProt P00734)
Technique: aptamer microarray, sandwich
Molecule type: DNA with 2'F-ANA
Sample: in vitro
Tested at: 200 nM
Setting: whole 15-mer aptamer, many near background
With: Cy3 exosite-II aptamer, 400 nM
Reading: higher = stronger binding
Endpoint: mean fluorescence intensity
Strand: GGTTGGTGTGGTTGG
2'F-ANA at 1 2 5 7 8 9 11 13: 51.9 a.u.
2'F-ANA at 1 3 5 7 12: 132 a.u.
2'F-ANA at 4 7 10 13 14 15: 58.4 a.u.
2'F-ANA at 1 2 4 5 6 8 9 11 12 14: 48.1 a.u.
2'F-ANA at 1 2 4 5 9 10 11 12 13 14: 52.1 a.u.
2'F-ANA at 1 3 5 8 10 13 14: 79.2 a.u.
2'F-ANA at 2 7 9 11 13 15: 297 a.u.
2'F-ANA at 2 3 7 8 9 11 12 14: 518 a.u.

Further values, each from its own experiment
Starting sequence: PafA, mature enzyme, eGFP fusion (Elizabethkingia meningoseptica, UniProt Q9KJX5); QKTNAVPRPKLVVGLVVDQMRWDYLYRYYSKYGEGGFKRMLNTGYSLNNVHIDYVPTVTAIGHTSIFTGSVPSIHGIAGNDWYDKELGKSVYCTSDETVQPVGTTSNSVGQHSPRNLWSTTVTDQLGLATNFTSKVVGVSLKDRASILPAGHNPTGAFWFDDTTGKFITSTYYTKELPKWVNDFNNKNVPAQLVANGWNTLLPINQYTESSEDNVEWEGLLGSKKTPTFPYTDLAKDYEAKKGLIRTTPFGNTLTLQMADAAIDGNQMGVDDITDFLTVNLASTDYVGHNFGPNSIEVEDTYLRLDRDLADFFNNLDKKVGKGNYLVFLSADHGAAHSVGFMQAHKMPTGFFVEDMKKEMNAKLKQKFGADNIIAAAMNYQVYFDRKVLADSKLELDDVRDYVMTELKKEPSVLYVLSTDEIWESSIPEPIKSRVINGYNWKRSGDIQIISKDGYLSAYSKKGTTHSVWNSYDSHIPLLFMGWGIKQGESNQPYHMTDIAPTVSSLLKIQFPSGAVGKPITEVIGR
V298A — phosphate dissociation constant (inorganic phosphate, free oxyanion; microfluidic competitive inhibition; in vitro, cell-free expressed; not given, derived from inhibition constants, unchanged parent 615000 nM; lower = stronger binding): 714 µM

For quick reference, copied from above (further values, each from its own experiment):
V298A — phosphate dissociation constant (inorganic phosphate, free oxyanion; microfluidic competitive inhibition; in vitro, cell-free expressed; not given, derived from inhibition constants, unchanged parent 615000 nM; lower = stronger binding): 714 µM
